Results pooled from the literature.
A part holds a random share of what one study measured. Values joined by “and” are separate records of one study, mostly repeats; a detail may differ.
Sequence of UniProt Q96SW2 (whole entry, looked up): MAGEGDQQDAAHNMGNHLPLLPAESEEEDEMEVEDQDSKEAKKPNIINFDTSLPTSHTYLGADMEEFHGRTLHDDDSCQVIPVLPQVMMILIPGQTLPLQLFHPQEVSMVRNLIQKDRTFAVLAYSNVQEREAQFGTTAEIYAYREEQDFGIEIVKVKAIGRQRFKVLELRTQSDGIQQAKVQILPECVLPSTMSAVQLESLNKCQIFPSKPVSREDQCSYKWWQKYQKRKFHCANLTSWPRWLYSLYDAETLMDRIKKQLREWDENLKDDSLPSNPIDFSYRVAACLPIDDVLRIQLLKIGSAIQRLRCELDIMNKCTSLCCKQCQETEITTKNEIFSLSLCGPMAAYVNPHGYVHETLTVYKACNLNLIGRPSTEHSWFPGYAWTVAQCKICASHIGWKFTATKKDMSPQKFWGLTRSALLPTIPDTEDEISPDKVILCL
Sequence of UniProt Q9UKS7 (whole entry, looked up): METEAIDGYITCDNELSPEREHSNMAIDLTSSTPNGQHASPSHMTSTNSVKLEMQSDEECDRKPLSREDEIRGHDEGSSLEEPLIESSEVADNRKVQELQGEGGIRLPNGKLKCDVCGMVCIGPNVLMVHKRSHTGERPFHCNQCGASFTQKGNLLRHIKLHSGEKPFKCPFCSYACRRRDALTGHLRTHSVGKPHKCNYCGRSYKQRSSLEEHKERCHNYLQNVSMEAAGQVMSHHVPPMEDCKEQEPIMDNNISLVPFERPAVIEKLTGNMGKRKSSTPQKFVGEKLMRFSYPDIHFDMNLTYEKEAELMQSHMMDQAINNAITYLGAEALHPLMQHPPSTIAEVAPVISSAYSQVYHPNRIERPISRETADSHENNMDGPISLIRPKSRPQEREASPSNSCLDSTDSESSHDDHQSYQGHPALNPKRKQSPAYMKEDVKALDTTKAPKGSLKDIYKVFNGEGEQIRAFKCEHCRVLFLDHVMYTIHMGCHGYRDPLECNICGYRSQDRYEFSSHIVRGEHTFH

Set 1
Compound: COc1cc(C(=O)OCCCN2CCCN(CCCOC(=O)c3cc(OC)c(OC)c(OCc4ccc([N+](=O)[O-])cc4)c3)CC2)cc(OC)c1OC
Quantity: paw withdrawal frequency
test = von Frey test; test system = mouse, spared nerve injury; conditions = intrathecal, 100 nmol, third of 3 doses, 24 h; value = 90% and 60%
test = von Frey, 0.4 g filament; test system = mouse, CFA inflammatory pain; conditions = subcutaneous, 10 mg/kg, 5 h post-dose, second injection, day 3; value = 50% and 70% and 60% and 80%
test = von Frey test; test system = mouse, CFA inflammatory pain; conditions = intrathecal, dose not given, 3 h, together with: DPCPX 10 nmol intrathecal; value = 40% and 60% and 30% and 50%
test = von Frey test; test system = mouse, spared nerve injury; conditions = intrathecal, 100 nmol, third of 3 doses, 3 h; value = 10% and 30% and 20%
test = von Frey, 0.4 g filament; test system = mouse, CFA inflammatory pain; conditions = intravenous, dose not given, 24 h post-dose, first injection, day 1; value = 90% and 80% and 70%
test = von Frey test; test system = mouse, STZ diabetic neuropathy; conditions = subcutaneous, 30 mg/kg, second of three doses, 1 h; value = 0.98 fraction of stimuli and 0.65 fraction of stimuli and 0.51 fraction of stimuli and 0.44 fraction of stimuli and 0.13 fraction of stimuli and 0.32 fraction of stimuli
test = von Frey, 0.4 g filament; test system = mouse, CFA inflammatory pain; conditions = subcutaneous, 10 mg/kg, 1 h post-dose, first injection, day 1; value = 50% and 80% and 70% and 90%
test = von Frey, 0.4 g filament; test system = mouse, CFA inflammatory pain; conditions = subcutaneous, 10 mg/kg, 5 h post-dose, first injection, day 1; value = 70% and 50% and 80%

Set 2
Organism: Leishmania donovani
Observed: parasite growth
Method: resazurin
Notes: promastigote
Quantity: IC50
Structure (SMILES) = Clc1ccc(Nc2c3c(nc4ccccc24)CCC3)cc1; value = 6.56 µM
Structure (SMILES) = Cc1ccc2nc3c(c(Nc4ccc(O)cc4)c2c1)CCC3; value = 3.41 µM
Structure (SMILES) = CCOC(=O)c1ccc(Nc2c3c(nc4ccccc24)CCC3)cc1; value = 6.87 µM
Structure (SMILES) = Fc1cccc(Nc2c3c(nc4ccccc24)CCC3)c1; value = 7.41 µM
Structure (SMILES) = Fc1ccc(Nc2c3c(nc4ccccc24)CCC3)cc1; value = 6.58 µM
Structure (SMILES) = COc1cccc(Nc2c3c(nc4ccccc24)CCC3)c1; value = 4.12 µM
Structure (SMILES) = Cc1ccc(Nc2c3c(nc4ccccc24)CCC3)cc1; value = 5.49 µM
Structure (SMILES) = COc1cc(Nc2c3c(nc4ccccc24)CCC3)cc(OC)c1OC; value = 2.14 µM

Further values, each from its own experiment
SMILES = O=C1CCC(N2Cc3c(ccc4c3OCC43CCN(Cc4ccccc4)CC3O)C2=O)C(=O)N1 (stereo not shown); target or system = CRBN/Zinc finger protein Helios (Homo sapiens, UniProt Q96SW2+Q9UKS7); test = degrader, HiBiT; test system = HEK293; conditions = 0.5081 nM; quantity = protein remaining; value = 104%
SMILES = C#CCN1C(=O)C(O)(C(=O)O)Oc2cc(F)ccc21 (stereo not shown); target or system = Triticum aestivum; test = fresh weight; conditions = soil surface spray, 150 g ai/ha, 21 days, pre-emergence crop safety; quantity = inhibition; value = 14% and 12% and 11.5%
SMILES = Cn1cc(-c2cccc(CN3CCC4(CC3)COc3c4ccc4c3CN([C@H]3CCC(=O)NC3=O)C4=O)c2)cn1; test system = Crbn I391V mouse, MC-38 tumour; conditions = oral, daily, 30 mg/kg, animals reaching endpoint, together with: isotype control antibody i.p.; quantity = time to tumour volume 2000 mm3; value = 22 days and 15 days and 25 days and 39 days and 33 days and 36 days and 49 days and 19 days

Repeated from above (further values, each from its own experiment):
SMILES = Cn1cc(-c2cccc(CN3CCC4(CC3)COc3c4ccc4c3CN([C@H]3CCC(=O)NC3=O)C4=O)c2)cn1; test system = Crbn I391V mouse, MC-38 tumour; conditions = oral, daily, 30 mg/kg, animals reaching endpoint, together with: isotype control antibody i.p.; quantity = time to tumour volume 2000 mm3; value = 22 days and 15 days and 25 days and 39 days and 33 days and 36 days and 49 days and 19 days
SMILES = O=C1CCC(N2Cc3c(ccc4c3OCC43CCN(Cc4ccccc4)CC3O)C2=O)C(=O)N1 (stereo not shown); target or system = CRBN/Zinc finger protein Helios (Homo sapiens, UniProt Q96SW2+Q9UKS7); test = degrader, HiBiT; test system = HEK293; conditions = 0.5081 nM; quantity = protein remaining; value = 104%
